Assay results pooled from the literature.
Each numbered part is a random draw from the data of one study; scales do not carry over between parts.

Sample 1 — cell line: yeast with cyclin E2-Cln2 chimera; effect on: cell growth; action: binder; method: competitive growth deep sequencing; form: peptide; concentration: concentration not given; setting: peptide tiling library; reading: direction not given; measurement: growth enrichment score
Molecule = DVSERGYVILPNDYFE; value = -0.109
Molecule = LRRKLFLDGNGSIS; value = 0.0945
Molecule = RDLFDCDFGDLTPLDF; value = 0.594
Molecule = ARKRLELGNLGNPQ; value = -0.722
Molecule = GLPDFVFQQQPVESEA; value = 0.0901
Molecule = DKYDEGLYRFNSLNDL; value = -0.0685
Molecule = IQKKLRFEDTLEFVGF; value = -0.0426
Molecule = CFRCLLFSFSGRSGVE; value = -0.178
Molecule = AKRSLGFLPQPVPL; value = 0.587
Molecule = EAAPPTQEAQGETEPT; value = 0.611
Molecule = KPHVSDEEEEEPPFYH; value = 0.359
Molecule = RSLKLDGLLEEN; value = -0.179
Molecule = EPKTLFLGAGDFQF; value = 0.675
Molecule = ALLRRLQDVANDRGSH; value = 0.945
Molecule = QYQVVDDIVSKLVFDF; value = 0.374
Molecule = ESSTVSEEDYFSSHRD; value = 1.14
Molecule = KPKPVKPVTFSTGIKM; value = 0.292
Molecule = VEEEFFALRKRTPSAG; value = 0.337

Sample 2 — method: RNAcompete; form: RNA; medium: in vitro; concentration: 20 nM; setting: 7-mer, probes averaged, single round; baseline: mean of 7-mers; reading: higher = stronger binding; measurement: 7-mer Z-score
Target: PABPC1L2, full length, GST fusion (mouse, UniProt A0ABA7IW68)
Residues (chain): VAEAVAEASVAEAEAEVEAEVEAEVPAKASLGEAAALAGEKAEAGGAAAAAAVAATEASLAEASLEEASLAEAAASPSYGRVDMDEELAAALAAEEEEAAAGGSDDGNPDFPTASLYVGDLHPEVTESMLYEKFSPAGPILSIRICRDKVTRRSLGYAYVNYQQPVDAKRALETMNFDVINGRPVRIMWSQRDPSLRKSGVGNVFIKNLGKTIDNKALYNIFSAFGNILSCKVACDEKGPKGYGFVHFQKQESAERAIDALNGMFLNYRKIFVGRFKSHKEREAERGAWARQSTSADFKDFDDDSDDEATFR
Oligonucleotide = CUACCAA; value = -0.0573
Oligonucleotide = CUCUAAG; value = -0.28
Oligonucleotide = CUAUCAG; value = -0.235
Oligonucleotide = CAUAUGG; value = -0.121
Oligonucleotide = AUCCACU; value = -0.148
Oligonucleotide = CAGUAUC; value = -0.206
Oligonucleotide = CCAGCAC; value = -0.148
Oligonucleotide = CGGUUAU; value = -0.204
Oligonucleotide = CUUUCCA; value = -0.311
Oligonucleotide = ACUAUAG; value = -0.101
Oligonucleotide = CUACUAU; value = -0.0989
Oligonucleotide = ACCGAAA; value = 0.773
Oligonucleotide = GAUAAAG; value = 1.54
Oligonucleotide = AGGUAGC; value = 0.0388
Oligonucleotide = GGGUGAU; value = 0.204
Oligonucleotide = GUGUUCU; value = -0.454
Oligonucleotide = UAACAGG; value = 0.0913
Oligonucleotide = AUAUAUA; value = -0.0156
Oligonucleotide = UCUGUUG; value = -0.427
Oligonucleotide = GGAGAUG; value = 0.0823
Oligonucleotide = ACGUAAG; value = -0.199
Oligonucleotide = ACUGAUC; value = -0.204
Oligonucleotide = AGUGCUG; value = -0.012
Oligonucleotide = AUAGAGU; value = 0.0261
Oligonucleotide = AGCUAGG; value = 0.336

Sample 3 — method: protein binding microarray; form: double-stranded DNA, one strand shown; medium: in vitro; concentration: not given; baseline: not given; reading: higher = stronger binding; measurement: E-score
Target: Histone acetyltransferase KAT6A, winged helix 1, GST fusion (KAT6A, Homo sapiens, UniProt Q92794, residues 1-85)
Setting: 8-mer, flanks averaged, mean of 2 arrays, mostly near background
Construct (chain): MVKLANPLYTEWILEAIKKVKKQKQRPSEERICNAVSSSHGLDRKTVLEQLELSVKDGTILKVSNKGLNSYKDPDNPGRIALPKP
Oligonucleotide = GTTGCGAA; value = -0.162
Oligonucleotide = AAACTGGC; value = -0.161
Oligonucleotide = CTGAGAAG; value = -0.14
Oligonucleotide = ACCTATCG; value = -0.0158
Oligonucleotide = GCCATCGA; value = 0.00946
Oligonucleotide = CACTGCCA; value = -0.116
Oligonucleotide = GATATGGC; value = 0.208
Oligonucleotide = ACCTTCTG; value = -0.138
Oligonucleotide = CAGAGTGG; value = -0.138
Oligonucleotide = GCTTATTA; value = -0.0171
Oligonucleotide = TCGGCGAA; value = 0.289
Oligonucleotide = ATCGTGCA; value = -0.178
Oligonucleotide = CCTCTTGA; value = -0.245
Oligonucleotide = CGTTGGCA; value = 0.0362
Oligonucleotide = GCTTAAGC; value = 0.046
Oligonucleotide = CTTAGTAC; value = 0.0102
Oligonucleotide = ACCTGGCA; value = -0.167

Sample 4 — method: RNA Bind-n-Seq; form: RNA; medium: in vitro; concentration: not given; baseline: input RNA pool; reading: higher = stronger binding; measurement: bound/input enrichment
Target: RING finger protein unkempt homolog, zinc fingers 1-6, GST-SBP tag (UNK, Homo sapiens, UniProt Q9C0B0, residues 30-357)
Setting: RNA with constant flanks, human and mouse sites, ends assumed
All sequences stand within: GGGAGUUCUACAGUCCGACGAUC … CAACAGAGGAUUGAGCAUCA
Target sequence (chain): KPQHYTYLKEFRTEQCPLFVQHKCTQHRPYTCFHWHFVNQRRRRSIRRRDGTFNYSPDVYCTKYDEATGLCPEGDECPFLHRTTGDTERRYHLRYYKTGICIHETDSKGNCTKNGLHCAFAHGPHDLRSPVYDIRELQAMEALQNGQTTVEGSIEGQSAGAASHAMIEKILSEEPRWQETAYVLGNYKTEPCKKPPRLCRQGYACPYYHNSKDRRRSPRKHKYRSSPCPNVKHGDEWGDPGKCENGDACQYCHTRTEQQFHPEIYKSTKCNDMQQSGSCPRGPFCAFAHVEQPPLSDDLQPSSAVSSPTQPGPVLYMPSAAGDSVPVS
Oligonucleotide = GCGCACAGACUUCUCAGUUUGUGUACUCUGUCUGCACCUACACGAUUAGAACCUGAAACAGCACCUACCAAGAGCUUGGUUAGUCACAUACCAAAGCAGAUGUCUACACCGUGCCAUCCC; value = 0.152 ratio
Oligonucleotide = AAUAUCAUUCCUAGUACCUUUUUGCCUAAACAAGAAGGACCUUUUUUCUUGGACUUUAAUAGUAUUAUCCCCAUCAAGAUCACACAACUUCAGUGAUGGAGAAAUCUCAAGUUACUGGCU; value = 0.558 ratio
Oligonucleotide = AUGUAUCUUUCAUGAUUAAUGUGUGUGUGGGCAGCACCCUAAUCUAGAAUUCAUUCAUAAAAUAGUGUUCCUACAUAGAAAAAUUUAGGAAGAGAAAUUACCCAUUGUGGUAAAGUUAUC; value = 62.9 ratio
Oligonucleotide = AUCUAUACAACCAUCAACGCUCACCAGUGGUCUGAGACGGUCCAGCCAAUUAUGGAAGCACUUAGAGAUGCAACAAGGAGACGCGCCUUUGCCCUGGUCUCUCAAGCGUAUACUUCAAUC; value = 0.291 ratio
Oligonucleotide = UAUAAAAGCAGCUCCCCGCGCGCGCUGUCGGGCGACCUCUUCCUGCGUUCUCACGGCUCUUUCUGUUUGUGAGACCUGUGGCUCGACCCUGCUGAUAGCAAGAUGUCUUCAGGAAAUGCA; value = 0.306 ratio
Oligonucleotide = GUUCAAGAGGAUUUGCCUUUGUAUAUUUUGAAAAUGUAGAUGAUGCCAAGGAAGCUAAAGAACGUGCCAAUGGAAUGGAGCUUGAUGGGCGUAGGAUCAGAGUUGAUUUCUCUAUAACAA; value = 0.453 ratio
Oligonucleotide = CUCAUAUUAGUAGCCAAUGCAAUUGUGGGUGUAUGGCAGGAAAGAAAUGCUGAAAAUGCCAUCGAAGCCCUUAAGGAAUAUGAGCCUGAAAUGGGCAAAGUGUAUCGACAGGACAGAAAG; value = 0.574 ratio
Oligonucleotide = UAGAUCUGAUCGAGUUAAGAGUGUGGAUCUGCAUCCUACAGAGCCAUGGAUGUUGGCAAGUCUUUACAAUGGCAGUGUGUGUGUUUGGAAUCAUGAAACACAGACACUGGUGAAGACAUU; value = 0.0568 ratio
Oligonucleotide = CAUAAUCUGAAGGAUCGCUACUAUUCAGGACUAAUCUAUACUUAUUCUGGACUCUUCUGUGUAGUUAUAAACCCUUACAAGAAUCUUCCAAUUUACUCUGAGAAUAUUAUUGAAAUGUAC; value = 3.24 ratio
Oligonucleotide = AAGGCAUCUUGUACGUCGUUACAUUUAUCAUAUUGGAAGUCCCUUAAGCUCCUAGGAUUUUUAGAUGUUGAAAAUACUCCCUGCGCCCGGCAUUCAAUAUUGUAUGGUUCAUUAGGAUCU; value = 2.74 ratio
Oligonucleotide = ACCAAACUCUUUCUGAUUUUGGCAAAAAAGUUCCCCCACGUGCAGACUGAUGUGCUUGUGCGAGUCAAGGGGCCCUUGCUGGCCGCCUGCUCUUCAGAGAGCCGUGAGCUCUGUUUUGCU; value = 0.189 ratio

Sample 5 — method: EMSA with sequencing; form: double-stranded DNA, one strand shown; medium: in vitro; concentration: 10 and 20 nM; baseline: negative control set to 0; reading: higher = stronger binding; measurement: normalised bound fraction
Target: Hepatocyte nuclear factor 3-alpha (Foxa1, Mus musculus, UniProt P35582, residues 1-468, full length assumed)
Setting: whole designed probe, mean of two concentrations, ends assumed
All sequences stand within: GTGAGCGGTGCCCATTGATGGGGAAC … TTTCACTGGGATCGTGGGGAC
Residues (chain): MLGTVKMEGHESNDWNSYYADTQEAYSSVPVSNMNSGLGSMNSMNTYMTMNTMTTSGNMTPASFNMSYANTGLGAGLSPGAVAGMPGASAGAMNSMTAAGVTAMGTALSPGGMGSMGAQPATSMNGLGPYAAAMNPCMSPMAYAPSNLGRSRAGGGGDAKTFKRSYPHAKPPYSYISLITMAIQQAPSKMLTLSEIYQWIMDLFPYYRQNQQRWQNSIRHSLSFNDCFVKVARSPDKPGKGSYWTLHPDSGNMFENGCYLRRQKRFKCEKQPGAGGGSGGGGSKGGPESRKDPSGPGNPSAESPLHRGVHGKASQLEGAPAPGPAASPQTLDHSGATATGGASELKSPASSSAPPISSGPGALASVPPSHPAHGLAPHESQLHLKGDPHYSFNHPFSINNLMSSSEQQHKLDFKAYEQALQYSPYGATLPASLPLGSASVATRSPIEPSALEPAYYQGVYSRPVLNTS
Oligonucleotide = GTGTGCTAGCCTGTGAGTTTTTCTCTCCAACTAGCCTGGGTACTCAGGAAAGTGAGATTTGGGTGTAGCCAACTTCTGGGTGGCCTGACCTGTGCAAATAGGGGAGACAGTTGACATACAGATGAAAGGGGAGATGGGAAGCCATACAGAGGAAGGAGAAGATCAGGAACCAGAGATAAGATAATTCTGTAAA; value = 0.201 ratio
Oligonucleotide = CATGTACAAACAAAATATGGGTTGTGTAATTTCAGTAATTCCATGTACAAGTTAAACACTCTGATATTTGCATTTATTGCACAATAAAATGTCGTAAACATGAATGCTAACAATCTTTTTTTTTTTTCCTGAGACGGAGTCTTGCTCTATCGCCCAGGCTGGAGTGCAGCGGCACAATCTCTGCTTACTGCCA; value = 0.346 ratio
Oligonucleotide = CTTCCACCCGCTCCTTCTCCCTGGATTAAAACACCACGAATTTTCTGCTCTTTGCTTTTCTTGAATAAGTTACCAAAAAAGAGCAGAACTAAGTCATCTCCAAACTGCCCTTTGGATAAACAAGATGGAGCAGATTAAATTACCTTGGAACATGATTTTGAATTCAAGCCATGAAGTACACTGGAGGAATGCC; value = 0.0494 ratio
Oligonucleotide = AGGTGAATTGGCTGCTTCCATCCTGGCTTGGAACTTCAGACATAGAAGCCTTGGGACTCTGACTCATGCTTCTCAGGACTTTCTCCAGATTCAGCAAACAAGCATCTCTGTGGATCACGTGACCTTAGCCAGGGATGTTGGTGAAACTGTGTGTTGGTCTAGGTACCTAGCCCATGCTAGGTGCTCATCGAAT; value = 0.0585 ratio
Oligonucleotide = AGCAGGAAACTCTCCCACCCCTTTTTCCTCTCTCTTTCAAAGCAATTTGTTTCAGTATTTTAGCATACAAAAAAATAGAACCATTTTCTTCAATGTAATCTGAGATCTGCAGGGAAATAAGAGCGTTAAAAAAGAATTAGCATTTGTTTGGTGGTGAAGCTGCTTTTGTTTGTATCAGAAAGCTCTGCATGTT; value = -0.0136 ratio
Oligonucleotide = AAATGACTTTGGGAAAAGGTTTTGGAAGATTGAGAAGAAAAAAGAGAAGGTAATTTGATGTCACCTTTTTCCTGAGAGAATGAAGGTATCCTTGTTTACTTTAAAAAAAAAAAAAAAAAGAGGCGGGGGAGTTGGGGGATGAATTGGTGTTGGAACTTGTCTTGGAAAAAGTTGTTAATTTAGTTTGGGGACA; value = 0.35 ratio
Oligonucleotide = ATCTTCCCCCTCTTCCTTGCCCCACCAGCTCACCTTCCCGGGTTGTTTACTTTGAGGAAATTAATATAAGCCGGCATTCGTTAACCCTCTTCTGGCGCAAACTGCTGTTTACTTTGGATGAATCATGGTCCTTTGGCGACGCCAGGCTCCGGGAGAGCAAAGCACCGTGTCAGGGCCATGATCCGGGGTGGCC; value = 0.429 ratio
Oligonucleotide = ATCTTCCCCCTCTTCCTTGCCCCACCAGCTCACCTTCCCGGGTTATTTGCAGATAGTATTTATTTTCAAGCCGGCATTCGTTAACCCTCTTCTGGCGCAAACTGCTGTTTGCTCTGGATGAATCATGGTCCTTTGGCGACGCCAGGCTCCGGGAGAGCAAAGCACCGTGTCAGGGCCATGATCCGGGGTGGCC; value = 0.228 ratio

Some of these lines once more (sample 2):
Oligonucleotide = CGGUUAU; value = -0.204
Oligonucleotide = GGAGAUG; value = 0.0823
Oligonucleotide = CUAUCAG; value = -0.235
Oligonucleotide = GGGUGAU; value = 0.204
Oligonucleotide = CUACUAU; value = -0.0989
Oligonucleotide = CUACCAA; value = -0.0573
Oligonucleotide = AUCCACU; value = -0.148
Oligonucleotide = UCUGUUG; value = -0.427
Oligonucleotide = CUCUAAG; value = -0.28
Oligonucleotide = AGUGCUG; value = -0.012
